Published values pooled from the literature.
Protocols differ between the studies behind these lines. “And” joins repeats or separate records; there may be more than shown. ± gives the spread as reported.
T1: ssDNA, aptamer; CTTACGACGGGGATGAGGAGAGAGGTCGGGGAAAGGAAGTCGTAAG
UniProt Q16774, sequence (whole entry, looked up): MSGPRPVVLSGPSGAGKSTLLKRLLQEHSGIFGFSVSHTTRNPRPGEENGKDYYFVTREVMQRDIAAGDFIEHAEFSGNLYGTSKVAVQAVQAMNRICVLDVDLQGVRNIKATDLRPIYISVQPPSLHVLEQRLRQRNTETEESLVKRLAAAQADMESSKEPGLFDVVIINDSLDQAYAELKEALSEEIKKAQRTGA
UniProt P05164, sequence (whole entry, looked up): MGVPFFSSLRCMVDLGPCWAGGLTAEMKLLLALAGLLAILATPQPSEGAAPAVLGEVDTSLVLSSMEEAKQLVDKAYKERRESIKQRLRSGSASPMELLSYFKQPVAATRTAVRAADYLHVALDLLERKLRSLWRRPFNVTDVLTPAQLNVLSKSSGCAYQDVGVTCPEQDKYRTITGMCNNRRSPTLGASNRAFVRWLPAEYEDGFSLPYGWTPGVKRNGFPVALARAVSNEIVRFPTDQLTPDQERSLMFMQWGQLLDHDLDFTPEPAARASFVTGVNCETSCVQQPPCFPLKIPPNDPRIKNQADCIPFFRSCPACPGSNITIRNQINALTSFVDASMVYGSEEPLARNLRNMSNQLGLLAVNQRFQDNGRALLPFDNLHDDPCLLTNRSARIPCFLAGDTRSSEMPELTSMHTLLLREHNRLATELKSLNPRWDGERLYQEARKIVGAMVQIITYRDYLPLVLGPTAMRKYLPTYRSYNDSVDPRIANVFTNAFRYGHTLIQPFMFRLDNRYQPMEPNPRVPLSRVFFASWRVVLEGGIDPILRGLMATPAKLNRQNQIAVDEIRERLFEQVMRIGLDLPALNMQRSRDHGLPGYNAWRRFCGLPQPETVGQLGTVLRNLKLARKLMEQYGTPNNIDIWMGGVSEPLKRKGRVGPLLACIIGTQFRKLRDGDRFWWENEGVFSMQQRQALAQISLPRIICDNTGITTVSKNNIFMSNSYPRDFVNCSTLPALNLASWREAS
UniProt Q8NER1, sequence (whole entry, looked up): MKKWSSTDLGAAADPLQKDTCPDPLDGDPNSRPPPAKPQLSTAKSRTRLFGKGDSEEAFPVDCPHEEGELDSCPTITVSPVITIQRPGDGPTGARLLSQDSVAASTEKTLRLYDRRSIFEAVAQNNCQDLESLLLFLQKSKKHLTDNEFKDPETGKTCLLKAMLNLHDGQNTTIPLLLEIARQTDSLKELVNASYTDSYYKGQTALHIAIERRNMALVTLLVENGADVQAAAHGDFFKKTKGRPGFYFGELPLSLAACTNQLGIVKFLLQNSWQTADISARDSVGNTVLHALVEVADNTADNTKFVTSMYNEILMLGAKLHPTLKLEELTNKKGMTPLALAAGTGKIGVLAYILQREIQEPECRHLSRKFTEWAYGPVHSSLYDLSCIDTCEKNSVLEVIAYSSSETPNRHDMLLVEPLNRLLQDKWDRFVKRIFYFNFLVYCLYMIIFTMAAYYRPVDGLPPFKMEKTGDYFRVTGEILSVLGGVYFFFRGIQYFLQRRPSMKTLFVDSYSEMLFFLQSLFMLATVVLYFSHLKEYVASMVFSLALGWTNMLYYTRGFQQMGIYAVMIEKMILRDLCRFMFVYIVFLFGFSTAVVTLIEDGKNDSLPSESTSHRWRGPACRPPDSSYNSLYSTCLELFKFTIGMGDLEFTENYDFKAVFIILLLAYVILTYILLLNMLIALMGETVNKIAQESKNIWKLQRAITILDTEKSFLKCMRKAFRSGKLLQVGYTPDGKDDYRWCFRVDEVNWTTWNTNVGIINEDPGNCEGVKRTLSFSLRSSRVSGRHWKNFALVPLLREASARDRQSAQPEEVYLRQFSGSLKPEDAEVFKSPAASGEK
UniProt P22736, sequence (whole entry, looked up): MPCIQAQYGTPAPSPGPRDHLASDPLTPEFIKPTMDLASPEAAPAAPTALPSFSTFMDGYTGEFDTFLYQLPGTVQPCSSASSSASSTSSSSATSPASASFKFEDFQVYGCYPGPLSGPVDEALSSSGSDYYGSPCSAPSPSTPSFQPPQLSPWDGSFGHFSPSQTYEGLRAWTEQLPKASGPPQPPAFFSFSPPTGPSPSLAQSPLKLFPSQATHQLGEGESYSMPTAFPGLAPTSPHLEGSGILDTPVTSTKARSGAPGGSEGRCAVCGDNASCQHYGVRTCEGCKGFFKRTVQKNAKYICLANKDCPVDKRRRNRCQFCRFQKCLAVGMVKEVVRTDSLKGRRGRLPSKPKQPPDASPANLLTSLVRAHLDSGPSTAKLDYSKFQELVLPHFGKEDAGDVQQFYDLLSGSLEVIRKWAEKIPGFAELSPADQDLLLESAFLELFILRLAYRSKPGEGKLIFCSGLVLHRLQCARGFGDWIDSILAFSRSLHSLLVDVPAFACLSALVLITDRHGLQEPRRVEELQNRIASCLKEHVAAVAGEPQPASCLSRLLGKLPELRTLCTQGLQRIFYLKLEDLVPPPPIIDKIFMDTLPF
UniProt Q07011, sequence (whole entry, looked up): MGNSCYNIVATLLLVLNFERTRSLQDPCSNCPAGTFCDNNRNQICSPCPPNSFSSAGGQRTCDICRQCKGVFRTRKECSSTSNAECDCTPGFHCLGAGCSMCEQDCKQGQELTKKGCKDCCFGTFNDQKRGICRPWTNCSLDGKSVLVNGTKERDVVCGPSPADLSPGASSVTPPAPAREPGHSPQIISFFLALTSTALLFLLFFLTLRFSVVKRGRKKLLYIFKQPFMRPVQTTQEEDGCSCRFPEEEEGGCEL
UniProt O15530, sequence (whole entry, looked up): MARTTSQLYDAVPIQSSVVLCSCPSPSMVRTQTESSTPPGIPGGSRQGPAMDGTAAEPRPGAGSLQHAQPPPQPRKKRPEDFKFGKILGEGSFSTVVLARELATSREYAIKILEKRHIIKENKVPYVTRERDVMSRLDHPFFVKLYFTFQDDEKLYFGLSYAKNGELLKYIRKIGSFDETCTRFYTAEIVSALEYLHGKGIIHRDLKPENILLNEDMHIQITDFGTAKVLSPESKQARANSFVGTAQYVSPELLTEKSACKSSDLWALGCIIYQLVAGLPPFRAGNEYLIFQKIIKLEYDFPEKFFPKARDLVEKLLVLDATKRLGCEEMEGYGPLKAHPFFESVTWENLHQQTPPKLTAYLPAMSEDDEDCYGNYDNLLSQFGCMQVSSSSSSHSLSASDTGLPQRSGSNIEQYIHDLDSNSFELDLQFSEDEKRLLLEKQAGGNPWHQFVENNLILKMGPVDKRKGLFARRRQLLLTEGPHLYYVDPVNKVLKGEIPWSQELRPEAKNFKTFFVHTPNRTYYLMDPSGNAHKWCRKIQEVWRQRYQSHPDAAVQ
UniProt Q92207, sequence (whole entry, looked up): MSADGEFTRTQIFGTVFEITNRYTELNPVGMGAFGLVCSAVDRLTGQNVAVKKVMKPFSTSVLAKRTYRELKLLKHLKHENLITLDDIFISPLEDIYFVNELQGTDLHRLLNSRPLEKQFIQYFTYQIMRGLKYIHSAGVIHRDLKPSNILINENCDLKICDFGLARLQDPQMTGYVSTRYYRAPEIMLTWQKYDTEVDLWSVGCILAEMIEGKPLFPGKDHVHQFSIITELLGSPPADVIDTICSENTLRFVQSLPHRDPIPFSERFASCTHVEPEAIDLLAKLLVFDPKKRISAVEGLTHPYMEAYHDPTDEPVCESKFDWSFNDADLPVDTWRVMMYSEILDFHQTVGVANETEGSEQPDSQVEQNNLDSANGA
UniProt P47898, sequence (whole entry, looked up): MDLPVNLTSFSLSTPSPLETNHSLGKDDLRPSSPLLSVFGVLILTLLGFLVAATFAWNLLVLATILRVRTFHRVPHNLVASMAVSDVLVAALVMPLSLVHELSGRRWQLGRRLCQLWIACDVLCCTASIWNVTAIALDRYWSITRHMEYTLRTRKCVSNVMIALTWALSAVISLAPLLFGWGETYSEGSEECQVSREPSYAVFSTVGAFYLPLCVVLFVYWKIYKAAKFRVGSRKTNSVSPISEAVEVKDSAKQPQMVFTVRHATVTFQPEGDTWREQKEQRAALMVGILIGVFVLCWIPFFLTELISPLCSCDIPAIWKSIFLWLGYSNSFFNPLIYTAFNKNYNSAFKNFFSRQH
UniProt Q96NY8, sequence (whole entry, looked up): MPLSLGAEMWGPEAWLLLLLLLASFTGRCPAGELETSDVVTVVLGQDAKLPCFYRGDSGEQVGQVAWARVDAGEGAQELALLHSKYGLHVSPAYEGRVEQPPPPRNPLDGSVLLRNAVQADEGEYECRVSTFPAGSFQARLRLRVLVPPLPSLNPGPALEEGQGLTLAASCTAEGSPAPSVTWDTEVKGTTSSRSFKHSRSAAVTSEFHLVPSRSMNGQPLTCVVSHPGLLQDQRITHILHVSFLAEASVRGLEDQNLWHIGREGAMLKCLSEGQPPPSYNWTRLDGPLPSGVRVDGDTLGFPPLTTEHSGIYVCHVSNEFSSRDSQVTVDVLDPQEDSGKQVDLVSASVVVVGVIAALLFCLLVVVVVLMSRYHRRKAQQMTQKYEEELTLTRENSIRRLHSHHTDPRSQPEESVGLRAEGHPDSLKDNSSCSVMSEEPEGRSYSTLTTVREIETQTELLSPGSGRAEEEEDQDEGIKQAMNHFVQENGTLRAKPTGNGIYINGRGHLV
UniProt P05177, sequence (whole entry, looked up): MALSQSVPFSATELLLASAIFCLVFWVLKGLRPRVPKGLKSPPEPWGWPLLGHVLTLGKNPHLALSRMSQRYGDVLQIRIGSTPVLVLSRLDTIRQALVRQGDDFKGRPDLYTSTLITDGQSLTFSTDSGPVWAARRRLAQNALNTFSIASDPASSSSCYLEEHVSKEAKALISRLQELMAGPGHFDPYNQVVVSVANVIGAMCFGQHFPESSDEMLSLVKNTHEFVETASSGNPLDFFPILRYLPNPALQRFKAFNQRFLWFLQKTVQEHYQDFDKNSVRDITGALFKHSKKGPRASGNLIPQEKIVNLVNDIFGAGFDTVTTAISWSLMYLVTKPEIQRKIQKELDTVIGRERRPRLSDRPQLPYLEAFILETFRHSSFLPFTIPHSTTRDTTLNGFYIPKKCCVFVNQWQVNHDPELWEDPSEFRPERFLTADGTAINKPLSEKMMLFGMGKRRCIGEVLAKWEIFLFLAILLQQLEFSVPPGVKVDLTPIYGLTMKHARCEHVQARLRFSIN

O=c1nc(N2CCN(CC3CCCCC3)CC2)sc2c([N+](=O)[O-])cc(C(F)(F)F)cc12  IC50 (Cytochrome P450 1A2 (CYP1A2, Homo sapiens, UniProt P05177); pH 7.4): > 10 µM
O=S(=O)(O)O  reaction velocity (GUK1 (Homo sapiens, UniProt Q16774); enzyme activity, NADH-coupled; 10 mM, with: ATP 4000 µM): 0.108 µM/s and 0.113 µM/s and 0.161 µM/s
Nc1ncnc2c1ncn2[C@@H]1O[C@H](CO)[C@@H](O)[C@H]1O  Kd (T1, ssDNA, aptamer; ITC): 38.6 µM
Nc1ccc(S(=O)(=O)Nc2nnc(Cc3ccc(F)cc3)s2)cc1  Kii (Glutathione hydrolase 1 proenzyme, without transmembrane domain (Homo sapiens, UniProt P19440); GSH hydrolysis, uncompetitive inhibitor; 37 °C, binds gamma-glutamyl enzyme, with: GSH 5-20 µM): 355 ± 16 µM
COc1cc(CNC(=O)CCCC/C=C/C(C)C)ccc1O  closed time constant (Transient receptor potential cation channel subfamily V member 1 (TRPV1, Homo sapiens, UniProt Q8NER1); channel gating, single-channel inside-out patch; 100 nM, component 2 of four): 1.42 ms
CC(C)OCCn1c(=S)[nH]c(=O)c2[nH]ccc21  LDL lipid peroxidation (Myeloperoxidase (MPO, Homo sapiens, UniProt P05164); inhibitor, cholesteryl ester hydroperoxide; 1.111 µM; reference: control): 21.4% and 32.1% and 27.4% and 60.5%
N#Cc1ccc2c(-c3ccncc3)c(-c3ccc(F)cc3)nn2c1  log2 fold change (Mitogen-activated protein kinase HOG1 (HOG1, Candida albicans, UniProt Q92207); MIB/MS competition binding; Candida albicans cell lysate; 100 nM; reference: DMSO, lower = stronger binding): -0.195
Cn1cc(-c2ccc(-c3cncc(Cl)c3N3CCC4(CCNC4=O)CC3)cc2)cn1  log2 fold change (COLO 205; gene expression, microarray, measured: TCP11L2 mRNA; concentration not given, 6 h; reference: untreated cells): 1.15
Cc1cc(C(=O)NC(C)(C)COc2cccc3c2C(N)=NS(=O)(=O)N3)cc(C)n1  cytotoxicity (human peripheral blood lymphocytes; CBPI, preliminary test; 2 µg/mL, 4 h; reference: vehicle control): -3%
O=C(NC(Cc1cc(=O)[nH]c2ccccc12)C(=O)O)c1ccc(Cl)cc1 (centres unmarked)  activity score (human iPSC-derived cardiomyocytes; MyBP-C/MYH ratio, plate-normalised SD score; concentration not given, primary screen; direction not given): 14.2
O=C(O)c1ccc(Nc2ncc3c(n2)-c2ccc(Cl)cc2C(c2c(F)cccc2F)=NC3)cc1  remaining activity (human CK2(h); kinase activity; 1 µM): 108%
CC[C@@H]1[C@H](F)C(=O)N[C@@H]1COc1nccc2cc(C(N)=O)c(OC)cc12  inhibition (3-phosphoinositide-dependent protein kinase 1 (PDPK1, Homo sapiens, UniProt O15530); ATP-site probe binding, ActivX profiling, measured: PDK1; THP-1 cell lysate; 0.04 mM, Lys1 site): 12.1%
O=c1nc(SCc2cc(F)cc(C(F)(F)F)c2)nc(SCc2ccc3sccc3c2)[nH]1  decatenated DNA (DNA topoisomerase 2-alpha (TOP2A, Homo sapiens, UniProt P11388); decatenation; 31.25 µM, replicate 2): 0%
Cc1cc(NC(=O)C=Cc2ccccc2)cc(-c2ccnc(N3CCC(CO)CC3)c2)c1  binding response (Nuclear receptor subfamily 4 group A member 1 (NR4A1, Homo sapiens, UniProt P22736); SPR; 10.0 µM): 85.7 RU
CCN(CC)CCOC(=O)c1ccc(N)cc1  activity score (human iPSC-derived cardiomyocytes; MyBP-C/MYH ratio, plate-normalised SD score; concentration not given, primary screen; direction not given): -3.6
CCCC[C@@H]1NC(=O)[C@H](Cc2ccc(O)cc2)NC(=O)[C@@H]2CCCN2C(=O)[C@H](CC(=O)O)NC(=O)[C@H](C)NC(=O)[C@H](Cc2ccccc2)NC(=O)[C@@H]2CSCCC(=O)N3CN(CN(C3)C(=O)CCSC[C@@H](C(=O)N[C@@H](CNC(=O)CCOCCOCCOCCOCCOCCn3cc(CCC(=O)N[C@H]4CSCCC(=O)N5CN6CN(C5)C(=O)CCSC[C@H](NC(=O)[C@@H](CC(=O)O)NC(=O)[C@H](Cc5cccc7ccccc57)NC(=O)[C@@H]5CCCN5C4=O)C(=O)N[C@@H](CCSC)C(=O)N[C@@H](CCCCNC(=N)N)C(=O)N[C@@H](CC(=O)O)C(=O)N[C@@H](Cc4c[nH]c5ccccc45)C(=O)N[C@@H](CO)C(=O)N[C@@H]([C@@H](C)O)C(=O)N4CCC[C@H]4C(=O)N4C[C@H](O)C[C@H]4C(=O)N[C@@H](Cc4c[nH]c5ccccc45)C(=O)N[C@H](C(N)=O)CSCCC6=O)nn3)C(N)=O)NC1=O)C(=O)CCSC[C@H](NC(C)=O)C(=O)N[C@@H](CC(C)(C)C)C(=O)N1CCC[C@H]1C(=O)N[C@@H](CCC(=O)O)C(=O)N[C@H](C)C(=O)N1CCC[C@H]1C(=O)N[C@@H](Cc1ccc(O)cc1)C(=O)N2  Emax (Tumor necrosis factor receptor superfamily member 9/Nectin-4 (Homo sapiens, UniProt Q07011+Q96NY8); reporter gene, agonist; HT-1376 coculture with reporter cells; reference: background): 31 fold
COc1ccc2c(c1)C(=O)N(CCN1CCN(c3ccccc3OC)CC1)C2  inhibition (5-hydroxytryptamine receptor 5A (HTR5A, Homo sapiens, UniProt P47898); radioligand binding; concentration not given, with: [3H]LSD): 65.8%

Some of these lines once more:
O=S(=O)(O)O  reaction velocity (GUK1 (Homo sapiens, UniProt Q16774); enzyme activity, NADH-coupled; 10 mM, with: ATP 4000 µM): 0.108 µM/s and 0.113 µM/s and 0.161 µM/s
Nc1ncnc2c1ncn2[C@@H]1O[C@H](CO)[C@@H](O)[C@H]1O  Kd (T1, ssDNA, aptamer; ITC): 38.6 µM
